Measurements from different studies.
Compare with care: the assays were run in different laboratories. Several values in a cell are separate wells, animals, samples, runs or records. ± gives the spread as reported.
YWHAZ: 14-3-3 protein zeta/delta (YWHAZ, Homo sapiens, UniProt P63104)
UniProt P63104, sequence (whole entry, looked up): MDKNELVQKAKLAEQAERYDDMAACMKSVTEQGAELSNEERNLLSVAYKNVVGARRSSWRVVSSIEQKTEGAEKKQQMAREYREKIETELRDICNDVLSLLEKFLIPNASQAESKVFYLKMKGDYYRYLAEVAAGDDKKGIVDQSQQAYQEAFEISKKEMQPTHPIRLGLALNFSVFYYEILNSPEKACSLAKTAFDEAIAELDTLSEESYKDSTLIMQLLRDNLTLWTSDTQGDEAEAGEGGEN
LRP6 E1 domain: Low-density lipoprotein receptor-related protein 6, E1 domain (LRP6, Homo sapiens, UniProt O75581)
UniProt O75581, sequence (whole entry, looked up): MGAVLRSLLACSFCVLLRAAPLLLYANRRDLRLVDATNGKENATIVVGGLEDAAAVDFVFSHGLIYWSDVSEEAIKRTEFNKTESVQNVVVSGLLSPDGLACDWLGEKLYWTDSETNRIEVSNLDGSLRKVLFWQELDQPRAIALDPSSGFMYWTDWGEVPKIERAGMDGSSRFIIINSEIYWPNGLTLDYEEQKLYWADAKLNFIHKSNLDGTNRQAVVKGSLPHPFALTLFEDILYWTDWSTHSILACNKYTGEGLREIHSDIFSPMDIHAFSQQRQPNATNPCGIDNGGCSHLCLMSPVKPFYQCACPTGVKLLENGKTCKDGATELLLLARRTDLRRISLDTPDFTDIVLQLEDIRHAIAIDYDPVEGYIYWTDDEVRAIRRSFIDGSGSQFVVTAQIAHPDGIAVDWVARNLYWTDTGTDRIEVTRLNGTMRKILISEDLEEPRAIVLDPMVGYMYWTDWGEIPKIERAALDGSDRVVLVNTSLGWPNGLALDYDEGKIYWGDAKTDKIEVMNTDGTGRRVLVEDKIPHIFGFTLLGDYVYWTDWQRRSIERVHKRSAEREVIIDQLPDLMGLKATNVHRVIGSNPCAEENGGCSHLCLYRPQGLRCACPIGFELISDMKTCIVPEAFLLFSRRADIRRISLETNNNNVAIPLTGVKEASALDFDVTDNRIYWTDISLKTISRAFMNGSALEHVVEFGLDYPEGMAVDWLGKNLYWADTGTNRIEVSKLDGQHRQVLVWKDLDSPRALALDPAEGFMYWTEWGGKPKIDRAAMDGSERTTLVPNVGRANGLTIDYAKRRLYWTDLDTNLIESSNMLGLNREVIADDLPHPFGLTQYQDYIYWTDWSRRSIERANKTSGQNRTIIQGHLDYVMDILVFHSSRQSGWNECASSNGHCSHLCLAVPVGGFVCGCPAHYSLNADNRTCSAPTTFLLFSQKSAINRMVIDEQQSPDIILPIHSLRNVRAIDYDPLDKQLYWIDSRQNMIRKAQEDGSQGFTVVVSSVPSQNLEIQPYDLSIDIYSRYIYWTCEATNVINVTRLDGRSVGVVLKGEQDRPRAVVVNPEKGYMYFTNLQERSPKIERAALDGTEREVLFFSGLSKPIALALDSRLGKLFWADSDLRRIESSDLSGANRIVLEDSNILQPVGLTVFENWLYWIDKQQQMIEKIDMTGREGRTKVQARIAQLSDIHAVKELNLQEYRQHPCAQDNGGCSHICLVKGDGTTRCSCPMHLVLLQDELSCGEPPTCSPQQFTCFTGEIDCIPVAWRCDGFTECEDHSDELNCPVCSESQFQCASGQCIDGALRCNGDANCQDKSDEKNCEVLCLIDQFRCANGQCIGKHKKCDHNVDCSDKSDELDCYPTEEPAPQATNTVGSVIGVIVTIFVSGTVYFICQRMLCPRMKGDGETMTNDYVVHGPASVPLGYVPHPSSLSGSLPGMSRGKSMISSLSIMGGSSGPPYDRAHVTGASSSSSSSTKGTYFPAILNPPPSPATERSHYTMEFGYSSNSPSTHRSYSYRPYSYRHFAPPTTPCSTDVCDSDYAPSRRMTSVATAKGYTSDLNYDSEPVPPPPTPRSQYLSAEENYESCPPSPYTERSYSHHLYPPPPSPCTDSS
UniProt P97287, sequence (152-308, looked up): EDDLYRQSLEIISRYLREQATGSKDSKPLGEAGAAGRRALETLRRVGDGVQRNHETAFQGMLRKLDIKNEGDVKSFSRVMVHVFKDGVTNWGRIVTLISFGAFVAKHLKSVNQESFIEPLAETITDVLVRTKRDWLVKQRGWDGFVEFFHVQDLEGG
UniProt P42568, sequence (whole entry, looked up): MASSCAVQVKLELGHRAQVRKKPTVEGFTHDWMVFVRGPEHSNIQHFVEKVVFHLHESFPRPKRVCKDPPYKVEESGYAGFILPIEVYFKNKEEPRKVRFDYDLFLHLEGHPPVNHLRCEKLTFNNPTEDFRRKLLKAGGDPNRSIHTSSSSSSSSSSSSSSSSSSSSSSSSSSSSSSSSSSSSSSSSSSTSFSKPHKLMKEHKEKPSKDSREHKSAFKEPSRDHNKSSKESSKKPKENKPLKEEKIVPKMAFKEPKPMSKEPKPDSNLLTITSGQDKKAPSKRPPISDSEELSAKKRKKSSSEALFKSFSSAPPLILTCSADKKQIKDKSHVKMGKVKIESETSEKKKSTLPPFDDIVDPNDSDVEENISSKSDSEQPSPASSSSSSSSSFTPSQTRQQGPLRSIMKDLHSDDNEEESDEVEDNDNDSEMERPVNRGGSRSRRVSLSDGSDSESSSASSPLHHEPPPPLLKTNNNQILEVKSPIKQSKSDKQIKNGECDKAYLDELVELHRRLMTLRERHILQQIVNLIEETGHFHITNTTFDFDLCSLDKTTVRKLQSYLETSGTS
UniProt P05771, sequence (whole entry, looked up): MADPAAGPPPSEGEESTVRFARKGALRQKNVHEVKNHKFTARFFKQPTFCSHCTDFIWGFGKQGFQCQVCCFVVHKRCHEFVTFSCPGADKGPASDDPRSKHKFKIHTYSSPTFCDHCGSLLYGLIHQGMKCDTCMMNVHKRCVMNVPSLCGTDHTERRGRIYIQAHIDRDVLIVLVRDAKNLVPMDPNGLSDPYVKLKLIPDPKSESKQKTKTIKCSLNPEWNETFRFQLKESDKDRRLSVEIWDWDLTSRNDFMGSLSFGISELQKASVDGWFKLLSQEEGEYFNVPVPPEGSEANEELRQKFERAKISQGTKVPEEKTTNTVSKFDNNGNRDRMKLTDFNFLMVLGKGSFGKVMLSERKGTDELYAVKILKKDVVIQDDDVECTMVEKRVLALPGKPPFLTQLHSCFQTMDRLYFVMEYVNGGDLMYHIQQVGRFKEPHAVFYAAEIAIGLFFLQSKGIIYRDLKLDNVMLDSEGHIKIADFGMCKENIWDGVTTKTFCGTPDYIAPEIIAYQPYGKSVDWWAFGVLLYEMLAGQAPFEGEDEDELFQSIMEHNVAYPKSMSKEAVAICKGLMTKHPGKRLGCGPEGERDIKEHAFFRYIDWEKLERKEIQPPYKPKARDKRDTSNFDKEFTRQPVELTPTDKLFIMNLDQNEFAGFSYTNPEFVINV
UniProt P21554, sequence (whole entry, looked up): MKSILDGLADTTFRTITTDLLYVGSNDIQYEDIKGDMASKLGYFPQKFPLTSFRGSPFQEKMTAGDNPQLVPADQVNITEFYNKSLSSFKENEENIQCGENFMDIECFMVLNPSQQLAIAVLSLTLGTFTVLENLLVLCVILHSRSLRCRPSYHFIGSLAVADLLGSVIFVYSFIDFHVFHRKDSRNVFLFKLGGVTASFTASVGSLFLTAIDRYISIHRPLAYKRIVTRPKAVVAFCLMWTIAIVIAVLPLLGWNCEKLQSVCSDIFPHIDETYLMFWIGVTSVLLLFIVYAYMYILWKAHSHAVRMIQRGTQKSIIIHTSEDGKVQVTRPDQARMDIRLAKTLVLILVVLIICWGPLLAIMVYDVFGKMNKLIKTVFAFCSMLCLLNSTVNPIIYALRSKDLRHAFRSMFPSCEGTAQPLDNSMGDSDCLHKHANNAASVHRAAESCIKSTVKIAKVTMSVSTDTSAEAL
UniProt Q8N126, sequence (whole entry, looked up): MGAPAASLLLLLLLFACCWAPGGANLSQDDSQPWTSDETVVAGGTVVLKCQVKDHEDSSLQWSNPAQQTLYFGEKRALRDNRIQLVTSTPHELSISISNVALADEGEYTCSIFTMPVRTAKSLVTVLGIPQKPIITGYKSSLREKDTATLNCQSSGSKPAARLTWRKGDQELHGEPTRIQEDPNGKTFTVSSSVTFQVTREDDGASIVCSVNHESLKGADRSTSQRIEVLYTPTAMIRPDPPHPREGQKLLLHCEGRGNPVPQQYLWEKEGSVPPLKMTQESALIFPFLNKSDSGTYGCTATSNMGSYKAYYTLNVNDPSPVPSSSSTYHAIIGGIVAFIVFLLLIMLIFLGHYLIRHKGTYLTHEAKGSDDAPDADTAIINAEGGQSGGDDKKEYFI
UniProt Q8NEZ5, sequence (whole entry, looked up): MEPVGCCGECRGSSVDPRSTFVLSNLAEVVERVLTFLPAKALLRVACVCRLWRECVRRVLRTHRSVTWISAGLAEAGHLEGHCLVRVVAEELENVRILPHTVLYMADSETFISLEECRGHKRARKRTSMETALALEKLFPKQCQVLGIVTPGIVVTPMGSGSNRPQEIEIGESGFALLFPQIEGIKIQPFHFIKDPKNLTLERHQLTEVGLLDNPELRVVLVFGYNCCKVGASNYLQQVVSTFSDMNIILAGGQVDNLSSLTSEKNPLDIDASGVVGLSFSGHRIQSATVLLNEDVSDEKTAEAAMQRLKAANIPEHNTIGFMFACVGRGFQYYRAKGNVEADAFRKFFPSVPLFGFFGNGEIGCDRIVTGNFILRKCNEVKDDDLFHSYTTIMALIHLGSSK
UniProt P31947, sequence (whole entry, looked up): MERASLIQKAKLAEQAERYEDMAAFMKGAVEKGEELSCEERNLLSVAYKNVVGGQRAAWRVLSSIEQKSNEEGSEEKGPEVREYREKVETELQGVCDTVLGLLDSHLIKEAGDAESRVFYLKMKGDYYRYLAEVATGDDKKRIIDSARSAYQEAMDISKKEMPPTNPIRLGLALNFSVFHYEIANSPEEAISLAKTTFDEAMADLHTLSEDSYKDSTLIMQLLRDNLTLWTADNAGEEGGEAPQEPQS

Structure (SMILES)	target or system	test	test system	setting	scale	quantity	result
CC[C@H](C)[C@H](NC(=O)[C@H](CO)NC(=S)Nc1ccc2c(c1)C(=O)OC21c2ccc(O)cc2Oc2cc(O)ccc21)C(=O)N[C@@H](CCC(=O)O)C(=O)N[C@@H](CCCCN)C(=O)NCC(=O)NCC(=O)N[C@@H](CCP(=O)(O)O)C(=O)N[C@@H](CC(C)C)C(=O)N1CCC[C@H]1C(=O)N[C@@H](CCCCN)C(=O)N[C@H](C(=O)N[C@@H](Cc1c[nH]c2ccccc12)C(=O)N[C@@H](CC(C)C)C(=O)N[C@H](C(=O)N1CCC[C@H]1C(=O)N[C@@H](CCCNC(=N)N)C(=O)O)C(C)C)C(C)C	YWHAZ	binding, fluorescence anisotropy	–	pH 7.5, FITC-labelled phosphopeptide titration	–	Kd	82.8 µM
O=C1NC2(CC2)COc2ncc(F)cc2[C@H]2COCCN2c2ccn3ncc1c3n2	–	–	Sprague-Dawley rat, female, liver	oral, 10 mg/kg/day, 4 weeks, end of treatment	–	organ-to-brain weight ratio	620 ± 107%
CC(=O)N[C@@H](CCCNC(=N)N)C(=O)N[C@H](C(=O)N1CCC[C@H]1C(=O)N[C@@H](COP(=O)(O)O)C(=O)N[C@@H](CC(C)C)C(=O)N1CCC[C@H]1C(=O)NCC(=O)N1CCC[C@H]1C(c1ccccc1)c1ccccc1)[C@@H](C)O	YWHAZ	isothermal titration calorimetry	–	second duplicate	–	Kd	6.1 µM
COc1ccccc1-c1n[nH]c2nc(NC3CCN(C(=O)Cc4ccc(F)cc4F)CC3)ncc12	–	bead binding, competition bead pull-down, measured: LMJF.35.0980	Leishmania donovani axenic amastigote extract	10 µM	relative to: vehicle	relative abundance	1
C[n+]1cccc(C(N)=O)c1	Nicotinamide N-methyltransferase, SAH-bound (Rattus norvegicus, UniProt A0ABK0M0V0)	binding, surface plasmon resonance	–	37 °C, added: SAH	–	Kd	0.794 µM
CC(C)[C@H](NC(=O)[C@H](C)NC(=O)CNC(=O)[C@H](C)NC(=O)[C@H](CC(=O)O)NC(=O)[C@H](CC(=O)O)NC(=O)[C@H](C)NC(=O)[C@@H]1CCCN1C(=O)[C@H](CCCCN)NC(=O)CNC(=O)[C@@H]1CCCN1C(=O)[C@@H]1CCCN1C(=O)[C@@H]1CCCN1C(=O)[C@H](CCC(=O)O)NC(=O)CN)C(=O)O	F-box only protein 22 (Homo sapiens, UniProt Q8NEZ5)	binding, SPR	–	–	–	Kd	22 µM
C/C=C/C(=O)NCCCC[C@H](NC(=O)[C@H](CCCNC(=N)N)NC(=O)[C@H](C)NC(=O)[C@@H](NC(=O)[C@H](CCC(N)=O)NC(=O)[C@H](CCCCN)NC(=O)[C@@H](NC(=O)[C@H](CCCNC(=N)N)NC(C)=O)[C@@H](C)O)[C@@H](C)O)C(=O)N[C@@H](CO)C(=O)N[C@H](C(=O)NCC(=O)NCC(=O)N[C@@H](CCCCN)C(=O)N[C@@H](C)C(=O)N1CCC[C@H]1C(N)=O)[C@@H](C)O	Protein AF-9 (Homo sapiens, UniProt P42568)	binding, ITC	–	pH 7.5	–	Kd	2.26 µM
CC[C@H](C)[C@H](NC(=O)[C@H](CCC(=O)O)NC(=O)[C@H](CCCNC(=N)N)NC(=O)[C@H](C)NC(=O)[C@H](Cc1c[nH]c2ccccc12)NC(=O)[C@H](CCC(=O)O)NC(=O)[C@H](CCC(=O)O)NC(=O)[C@H](CCC(=O)O)NC(C)=O)C(=O)NCC(=O)N[C@@H](CC(C)(C)C)C(=O)N[C@@H](CCC(N)=O)C(=O)N[C@@H](CC(C)C)C(=O)N[C@@H](CCCNC(=N)N)C(=O)N[C@@H](CCCNC(=N)N)C(=O)N[C@@H](C)C(=O)N[C@@H](C)C(=O)N[C@@H](CC(=O)O)C(=O)N[C@@H](CC(=O)O)C(=O)N[C@@H](CC(C)C)C(=O)N[C@@H](CC(N)=O)C(=O)N[C@@H](C)C(=O)N[C@@H](CCC(N)=O)C(=O)N[C@@H](Cc1ccc(O)cc1)C(=O)N[C@@H](CCC(=O)O)C(=O)N[C@@H](CCCNC(=N)N)C(=O)N[C@@H](CCCNC(=N)N)C(=O)N[C@@H](CCCNC(=N)N)C(N)=O	Induced myeloid leukemia cell differentiation protein Mcl-1 homolog, residues 152-308 (Mus musculus, UniProt P97287)	binding, SPR	–	0.2% DMSO	–	Kd	0.00036 µM
C=CC1CN2CCc3c([nH]c4ccccc34)C2CC1C(=COC)C(=O)OC (stereo not shown)	Thioredoxin-dependent peroxide reductase, mitochondrial (PRDX3, Homo sapiens, UniProt P30048)	binding, SPR	–	–	–	Kd	1.49 µM
CC(=O)NC1C(O)OC(CO)C(OC2OC(CO)C(OC3OC(CO)C(O)C(O)C3O)C(O)C2O)C1O (stereo not shown)	sly (Streptococcus suis, UniProt Q55996)	binding	–	–	–	Kd	0.4 µM
CC[C@H](C)[C@@H]1NC(=O)[C@H](Cc2c[nH]cn2)NC(=O)[C@H](CC(N)=O)NC(=O)[C@H](CO)NC(=O)[C@H](CCC(N)=O)NC(=O)[C@@H](NC(=O)CN)CSSC[C@@H]2NC(=O)CNC(=O)[C@H](C)NC(=O)[C@H](CC(C)C)NC(=O)[C@@H]3CSSC[C@@H](C(=O)NCC(=O)O)NC(=O)[C@H](C)NC(=O)CNC(=O)[C@H](CC(N)=O)NC(=O)[C@@H]4CCCN4C(=O)CNC(=O)[C@H](CSSC[C@H](NC(=O)[C@H](CCCNC(=N)N)NC(=O)[C@H](CC(N)=O)NC(=O)[C@H](Cc4c[nH]cn4)NC(=O)[C@H](CCCCN)NC(=O)[C@H](CC(C)C)NC1=O)C(=O)N[C@@H](CCCCN)C(=O)N[C@@H](CCC(N)=O)C(=O)N[C@@H](CC(=O)O)C(=O)N[C@@H](CO)C(=O)N[C@@H](CC(=O)O)C(=O)N3)NC(=O)[C@H](C(C)C)NC2=O	LRP6 E1 domain	binding, SPR	–	pH 7.5	–	Kd	> 1 µM
O=C(N[C@@H]1c2ccccc2C[C@H]1N1CCCC1)c1ccc(-c2ccnc3[nH]ccc23)nc1	Serine/threonine-protein kinase LATS2 (LATS2, Homo sapiens, UniProt Q9NRM7)	binding, competition with immobilised ligand	–	–	–	Kd	0.445 µM
Cc1ccc2c(C(C[N+](=O)[O-])c3cccs3)c(-c3ccccc3)[nH]c2c1 (stereo not shown)	Cannabinoid receptor 1, with GoB (CNR1, Homo sapiens, UniProt P21554)	GoB dissociation, agonist, BRET	HEK293	–	–	EC50	0.27 ± 0.09 µM
Cc1cc(C(=O)Nc2nc3cccc(C)c3n2[C@H]2CCCCN(C(=O)/C=C/CN(C)C)C2)ccn1	Trypanosoma brucei	cell growth, Alamar Blue	2T1 overexpressing Tb927.10.10350	–	relative to: parental 2T1	EC50 fold shift	1.16 fold and 0.8 fold
CSCC[C@H](NC=O)C(=O)N[C@@H](CCCNC(=N)N)C(=O)N[C@H](C(=O)NCC(=O)N[C@@H](CC(N)=O)C(=O)N[C@@H](C)C(=O)N[C@@H](CC(N)=O)C(=O)NCC(=O)NCC(=O)N[C@@H](CCCCNC(=S)Nc1ccc2c(c1)C(=O)OC21c2ccc(O)cc2Oc2cc(O)ccc21)C(=O)O)[C@@H](C)O	Uncharacterized protein YejA (yejA, Escherichia coli, UniProt P33913, R475A)	binding, fluorescence polarisation	–	YejA variant R457A	–	Kd	7.75 ± 0.48 µM
CC(=O)N[C@@H](Cc1ccc(O)cc1)C(=O)N[C@@H](CC(N)=O)C(=O)N1CCC[C@H]1C(=O)N[C@@H](Cc1ccccc1)C(=O)N[C@@H](CCC(=O)O)C(=O)N[C@@H](CCC(=O)O)C(=O)NCC(=O)NCC(N)=O	EH domain-containing protein 1, EH domain (Homo sapiens, UniProt Q9H4M9)	binding, isothermal titration calorimetry	–	20 °C, 15 mM NaCl	–	Kd	9.4 ± 1.2 µM
CC(C)C[C@H](NC(=O)[C@H](CCP(=O)(O)O)NC(=O)[C@@H](NC(=O)[C@@H](NC(=O)[C@H](CCCNC(=N)N)NC(=O)[C@H](CC(C)C)NC(=O)[C@H](CO)NC(=S)Nc1ccc2c(c1)C(=O)OC21c2ccc(O)cc2Oc2cc(O)ccc21)[C@@H](C)O)C(C)C)C(=O)NCC(=O)N[C@@H](C)C(=O)NCC(=O)N[C@@H](C)C(=O)N[C@@H](Cc1c[nH]c2ccccc12)C(=O)N[C@@H](CC(C)C)C(=O)N[C@H](C(=O)N1CCC[C@H]1C(=O)N[C@@H](CCCNC(=N)N)C(=O)O)C(C)C	14-3-3 protein sigma (SFN, Homo sapiens, UniProt P31947)	binding, fluorescence anisotropy	–	pH 7.5, FITC-labelled phosphopeptide titration	–	Kd	69.1 µM
CC(C)C[C@H](NC(=O)[C@H](CCCCN)NC(=O)CNC(=O)[C@H](Cc1ccccc1)NC(=O)[C@H](CO)NC(=O)[C@H](Cc1c[nH]c2ccccc12)NC(=O)CNC(=O)[C@@H]1CCCN1C(=O)[C@@H](N)C(C)C)C(=O)N[C@@H](Cc1c[nH]cn1)C(=O)N[C@@H](C)C(=O)N1CCC[C@H]1C(=O)O	V-type immunoglobulin domain-containing suppressor of T-cell activation, IgV domain (VSIR, Homo sapiens, UniProt Q9H7M9)	binding, microscale thermophoresis	–	–	–	Kd	3.09 µM
CN(C)[C@H]1C[C@@]23CC[C@@]4(O2)C(=CC[C@]2(C)[C@@H](c5ccc6ccncc6c5)CC[C@H]24)C=C3[C@@H](O)[C@@H]1O	Serine/threonine-protein kinase A-Raf (ARAF, Homo sapiens, UniProt P10398)	ATP probe labelling, inhibitor, KiNativ profiling	–	0.1 µM	–	inhibition	0.3%
CC(C)C[C@@H]1NC(=O)CNC(=O)[C@H](Cc2c[nH]cn2)NC(=O)[C@H](C)NC(=O)[C@H](CO)NC(=O)[C@H](CCC(N)=O)NC(=O)[C@@H](NC(=O)CN)CSSC[C@@H]2NC(=O)CNC(=O)[C@H](C)NC(=O)[C@H](CC(C)C)NC(=O)[C@@H]3CSSC[C@@H](C(=O)NCC(=O)O)NC(=O)[C@H](Cc4ccccc4)NC(=O)CNC(=O)[C@H](CC(N)=O)NC(=O)[C@@H]4CCCN4C(=O)CNC(=O)[C@H](CSSC[C@H](NC(=O)[C@H](CCCNC(=N)N)NC(=O)[C@H](CC(N)=O)NC(=O)[C@H](Cc4c[nH]cn4)NC(=O)[C@H](CCCCN)NC1=O)C(=O)N[C@@H](CCCCN)C(=O)N[C@@H](CCC(N)=O)C(=O)N[C@@H](CC(=O)O)C(=O)N[C@@H](CO)C(=O)N[C@@H](CC(=O)O)C(=O)N3)NC(=O)[C@H](C(C)C)NC2=O	LRP6 E1 domain	binding, SPR	–	pH 7.5	–	Kd	> 1 µM
CC(C)(C)C(=O)OCOP(=O)(OCOC(=O)C(C)(C)C)C1CCCN(O)C1=O (stereo not shown)	NCI-H322M	–	–	–	–	TGI	8.5 µM
CC(=O)N[C@@H](CCCNC(=N)N)C(=O)N[C@H](C(=O)N1CCC[C@H]1C(=O)N[C@@H](COP(=O)(O)O)C(=O)N[C@@H](CC(C)C)C(=O)N1CCC[C@H]1C(=O)N[C@H](C(=O)N1CCC[C@H]1C(c1ccccc1)c1ccccc1)[C@@H](C)O)[C@@H](C)O	YWHAZ	isothermal titration calorimetry	–	–	–	Kd	4.15 ± 0.45 µM
CC[C@H](C)[C@@H]1NC(=O)[C@@H]2CCCN2C(=O)[C@H](Cc2c[nH]c3ccccc23)NC(=O)[C@H](CO)NC(=O)[C@H](Cc2c[nH]c3ccccc23)NC(=O)[C@H](CC(N)=O)NC(=O)[C@H](CCCCN)NC(=O)[C@H](CCSC)NC(=O)[C@@H]2CSCCC(=O)N3CN(CN(C3)C(=O)CCSC[C@H](NC(=O)[C@H](C)N)C(=O)N3CCC[C@H]3C(=O)N[C@@H](Cc3ccccc3)C(=O)NCC(=O)N2)C(=O)CCSC[C@@H](C(=O)N[C@H](C(=O)N[C@@H](CC(N)=O)C(=O)N[C@@H](CCCCN)C(=O)N(C)CC(=O)N(C)CC(=O)N(C)CC(=O)N(C)CC(=O)N(C)CC(=O)N(C)CC(=O)N[C@@H](CCCCNC(=O)c2ccc(C(=O)O)c(-c3c4ccc(=O)cc-4oc4cc(O)ccc34)c2)C(N)=O)[C@@H](C)O)NC(=O)[C@H](Cc2c[nH]c3ccccc23)NC1=O	Cell adhesion molecule 3 (CADM3, Homo sapiens, UniProt Q8N126)	fluorescence polarization	–	–	–	Kd	> 2 µM
CS(C)(=O)=Nc1ccc(-c2ccc(-c3nc4cc(O[C@@H]5CO[C@H]6[C@@H]5OC[C@H]6O)[nH]c4cc3F)cc2)cc1	Protein kinase C beta type, isoform beta-II (PRKCB, Homo sapiens, UniProt P05771)	kinase activity	–	10 µM	–	inhibition	8%
CCCC1CC(=O)N[C@@H](CC(=O)O)C(=O)N2CC(C(C)CO)C[C@H]2C(=O)N[C@@H](CCC(=O)O)C(=O)N[C@@H]([C@@H](C)O)C(=O)NCC(=O)N[C@@H](CCC(=O)O)C(=O)N1 (stereo partly shown)	Kelch-like ECH-associated protein 1 (KEAP1, Homo sapiens, UniProt Q14145)	binding, MST	–	–	–	Kd	0.0135 µM

For quick reference, copied from above:
Structure (SMILES)	target or system	test	test system	setting	scale	quantity	result
Cc1ccc2c(C(C[N+](=O)[O-])c3cccs3)c(-c3ccccc3)[nH]c2c1 (stereo not shown)	Cannabinoid receptor 1, with GoB (CNR1, Homo sapiens, UniProt P21554)	GoB dissociation, agonist, BRET	HEK293	–	–	EC50	0.27 ± 0.09 µM
Cc1cc(C(=O)Nc2nc3cccc(C)c3n2[C@H]2CCCCN(C(=O)/C=C/CN(C)C)C2)ccn1	Trypanosoma brucei	cell growth, Alamar Blue	2T1 overexpressing Tb927.10.10350	–	relative to: parental 2T1	EC50 fold shift	1.16 fold and 0.8 fold
